{"data": "Measurements gathered from unrelated publications", "note": "Numbered parts are unrelated; each lists some results of a single study.", "chain of UniProt P07332 (whole entry, looked up)": "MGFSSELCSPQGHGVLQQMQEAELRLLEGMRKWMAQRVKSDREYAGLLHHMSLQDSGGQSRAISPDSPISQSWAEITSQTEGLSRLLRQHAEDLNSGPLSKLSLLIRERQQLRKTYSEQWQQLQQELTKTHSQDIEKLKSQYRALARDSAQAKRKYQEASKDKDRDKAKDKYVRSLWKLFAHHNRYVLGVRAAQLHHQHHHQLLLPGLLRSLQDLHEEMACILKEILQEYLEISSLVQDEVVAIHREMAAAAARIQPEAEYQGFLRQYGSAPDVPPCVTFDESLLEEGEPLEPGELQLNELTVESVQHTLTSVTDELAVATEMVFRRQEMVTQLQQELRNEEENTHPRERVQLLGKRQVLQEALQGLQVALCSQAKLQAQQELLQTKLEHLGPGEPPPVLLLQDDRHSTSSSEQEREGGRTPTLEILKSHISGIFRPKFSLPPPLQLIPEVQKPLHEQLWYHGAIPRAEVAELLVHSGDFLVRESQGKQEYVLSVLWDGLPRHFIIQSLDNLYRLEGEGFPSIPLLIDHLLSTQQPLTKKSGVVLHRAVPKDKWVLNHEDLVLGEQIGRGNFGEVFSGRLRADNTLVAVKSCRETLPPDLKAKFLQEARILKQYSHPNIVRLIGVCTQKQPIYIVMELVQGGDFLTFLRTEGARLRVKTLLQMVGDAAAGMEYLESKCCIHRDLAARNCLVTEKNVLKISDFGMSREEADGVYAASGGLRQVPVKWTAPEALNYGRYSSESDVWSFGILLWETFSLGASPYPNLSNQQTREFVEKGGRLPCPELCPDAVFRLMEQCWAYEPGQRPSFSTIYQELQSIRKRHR", "chain of UniProt Q8TBX8 (whole entry, looked up)": "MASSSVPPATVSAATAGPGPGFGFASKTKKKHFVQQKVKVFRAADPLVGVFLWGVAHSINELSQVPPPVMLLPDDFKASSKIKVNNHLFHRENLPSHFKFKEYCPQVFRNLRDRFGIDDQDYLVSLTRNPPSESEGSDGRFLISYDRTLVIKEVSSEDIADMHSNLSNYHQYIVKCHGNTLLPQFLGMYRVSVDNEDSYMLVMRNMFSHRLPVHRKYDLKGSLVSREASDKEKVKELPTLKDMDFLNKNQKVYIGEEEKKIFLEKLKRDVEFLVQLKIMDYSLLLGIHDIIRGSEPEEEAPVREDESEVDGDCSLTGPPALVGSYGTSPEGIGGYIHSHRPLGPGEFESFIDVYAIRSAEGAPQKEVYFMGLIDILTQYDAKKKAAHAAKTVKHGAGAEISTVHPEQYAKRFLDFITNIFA", "chain of UniProt O75747 (whole entry, looked up)": "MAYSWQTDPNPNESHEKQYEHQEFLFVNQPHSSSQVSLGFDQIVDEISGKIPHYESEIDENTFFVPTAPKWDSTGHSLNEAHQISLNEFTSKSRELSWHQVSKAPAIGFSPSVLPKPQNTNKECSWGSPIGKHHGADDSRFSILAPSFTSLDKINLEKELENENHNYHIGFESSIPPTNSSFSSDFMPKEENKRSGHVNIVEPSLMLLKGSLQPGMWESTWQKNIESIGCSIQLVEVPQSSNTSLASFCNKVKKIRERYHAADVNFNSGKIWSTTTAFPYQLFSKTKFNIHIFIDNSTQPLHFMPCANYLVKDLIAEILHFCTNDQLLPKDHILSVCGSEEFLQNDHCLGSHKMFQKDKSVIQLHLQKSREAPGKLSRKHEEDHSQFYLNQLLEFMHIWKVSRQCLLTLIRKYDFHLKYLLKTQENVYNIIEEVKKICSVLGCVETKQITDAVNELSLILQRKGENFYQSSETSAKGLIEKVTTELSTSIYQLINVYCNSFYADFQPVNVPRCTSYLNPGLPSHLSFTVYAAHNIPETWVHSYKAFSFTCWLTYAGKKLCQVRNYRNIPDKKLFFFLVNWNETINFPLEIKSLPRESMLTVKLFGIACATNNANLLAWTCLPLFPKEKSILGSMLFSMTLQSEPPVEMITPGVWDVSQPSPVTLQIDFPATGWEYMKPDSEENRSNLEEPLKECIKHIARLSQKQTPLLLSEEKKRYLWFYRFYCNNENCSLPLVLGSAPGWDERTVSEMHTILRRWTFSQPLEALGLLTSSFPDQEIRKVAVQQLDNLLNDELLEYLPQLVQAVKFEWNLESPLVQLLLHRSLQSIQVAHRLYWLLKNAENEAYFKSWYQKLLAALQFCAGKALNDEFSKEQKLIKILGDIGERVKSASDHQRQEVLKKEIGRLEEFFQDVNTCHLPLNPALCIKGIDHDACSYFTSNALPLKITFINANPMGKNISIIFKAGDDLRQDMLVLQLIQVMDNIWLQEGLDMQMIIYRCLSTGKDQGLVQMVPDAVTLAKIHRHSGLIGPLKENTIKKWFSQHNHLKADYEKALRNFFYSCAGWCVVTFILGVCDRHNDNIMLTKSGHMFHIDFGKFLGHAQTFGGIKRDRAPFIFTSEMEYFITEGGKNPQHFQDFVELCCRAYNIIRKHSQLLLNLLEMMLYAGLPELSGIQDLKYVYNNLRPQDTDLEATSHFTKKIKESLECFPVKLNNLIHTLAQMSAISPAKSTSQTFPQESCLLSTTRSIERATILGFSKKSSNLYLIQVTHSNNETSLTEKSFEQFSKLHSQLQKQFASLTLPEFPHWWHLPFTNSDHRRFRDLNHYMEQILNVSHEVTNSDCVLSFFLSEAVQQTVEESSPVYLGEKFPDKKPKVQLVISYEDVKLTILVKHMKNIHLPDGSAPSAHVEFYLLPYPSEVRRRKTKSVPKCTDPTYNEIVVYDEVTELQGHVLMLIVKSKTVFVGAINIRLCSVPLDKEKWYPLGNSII", "chain of UniProt P43403 (whole entry, looked up)": "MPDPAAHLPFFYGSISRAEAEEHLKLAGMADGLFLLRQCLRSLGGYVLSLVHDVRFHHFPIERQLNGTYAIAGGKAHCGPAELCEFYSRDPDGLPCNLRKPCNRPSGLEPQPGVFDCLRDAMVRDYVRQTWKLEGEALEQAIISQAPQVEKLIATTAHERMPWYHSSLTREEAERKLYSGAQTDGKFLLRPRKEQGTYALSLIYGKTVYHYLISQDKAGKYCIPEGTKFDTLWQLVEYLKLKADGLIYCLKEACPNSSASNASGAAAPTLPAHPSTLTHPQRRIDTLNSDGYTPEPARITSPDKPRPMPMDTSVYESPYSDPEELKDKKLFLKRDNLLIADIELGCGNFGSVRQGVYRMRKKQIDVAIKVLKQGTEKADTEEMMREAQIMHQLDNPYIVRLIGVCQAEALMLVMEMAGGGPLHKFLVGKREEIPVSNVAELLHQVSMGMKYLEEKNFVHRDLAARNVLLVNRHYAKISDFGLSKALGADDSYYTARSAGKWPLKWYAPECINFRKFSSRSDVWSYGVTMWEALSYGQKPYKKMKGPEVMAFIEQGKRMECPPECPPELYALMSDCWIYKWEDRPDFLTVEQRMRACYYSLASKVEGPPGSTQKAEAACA", "chain of UniProt Q13237 (whole entry, looked up)": "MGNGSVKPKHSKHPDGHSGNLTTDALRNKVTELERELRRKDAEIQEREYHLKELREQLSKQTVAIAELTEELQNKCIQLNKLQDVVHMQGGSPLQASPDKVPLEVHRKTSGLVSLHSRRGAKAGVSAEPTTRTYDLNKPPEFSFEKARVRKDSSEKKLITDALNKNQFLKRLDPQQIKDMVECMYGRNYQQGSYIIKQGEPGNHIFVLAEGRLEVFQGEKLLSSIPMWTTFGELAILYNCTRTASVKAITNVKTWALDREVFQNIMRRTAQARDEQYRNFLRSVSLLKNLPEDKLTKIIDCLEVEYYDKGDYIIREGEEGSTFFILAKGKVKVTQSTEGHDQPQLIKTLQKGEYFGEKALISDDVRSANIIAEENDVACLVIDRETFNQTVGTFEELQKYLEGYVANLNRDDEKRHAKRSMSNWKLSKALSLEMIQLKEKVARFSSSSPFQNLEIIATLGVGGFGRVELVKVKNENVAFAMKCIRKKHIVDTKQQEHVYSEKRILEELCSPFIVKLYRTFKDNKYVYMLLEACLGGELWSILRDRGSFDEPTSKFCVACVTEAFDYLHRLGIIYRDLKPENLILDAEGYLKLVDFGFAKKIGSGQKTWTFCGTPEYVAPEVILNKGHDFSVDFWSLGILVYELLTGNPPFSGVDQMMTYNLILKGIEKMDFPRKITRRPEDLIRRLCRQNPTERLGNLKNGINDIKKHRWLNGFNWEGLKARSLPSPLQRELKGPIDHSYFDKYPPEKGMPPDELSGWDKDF", "chain of UniProt O15146 (whole entry, looked up)": "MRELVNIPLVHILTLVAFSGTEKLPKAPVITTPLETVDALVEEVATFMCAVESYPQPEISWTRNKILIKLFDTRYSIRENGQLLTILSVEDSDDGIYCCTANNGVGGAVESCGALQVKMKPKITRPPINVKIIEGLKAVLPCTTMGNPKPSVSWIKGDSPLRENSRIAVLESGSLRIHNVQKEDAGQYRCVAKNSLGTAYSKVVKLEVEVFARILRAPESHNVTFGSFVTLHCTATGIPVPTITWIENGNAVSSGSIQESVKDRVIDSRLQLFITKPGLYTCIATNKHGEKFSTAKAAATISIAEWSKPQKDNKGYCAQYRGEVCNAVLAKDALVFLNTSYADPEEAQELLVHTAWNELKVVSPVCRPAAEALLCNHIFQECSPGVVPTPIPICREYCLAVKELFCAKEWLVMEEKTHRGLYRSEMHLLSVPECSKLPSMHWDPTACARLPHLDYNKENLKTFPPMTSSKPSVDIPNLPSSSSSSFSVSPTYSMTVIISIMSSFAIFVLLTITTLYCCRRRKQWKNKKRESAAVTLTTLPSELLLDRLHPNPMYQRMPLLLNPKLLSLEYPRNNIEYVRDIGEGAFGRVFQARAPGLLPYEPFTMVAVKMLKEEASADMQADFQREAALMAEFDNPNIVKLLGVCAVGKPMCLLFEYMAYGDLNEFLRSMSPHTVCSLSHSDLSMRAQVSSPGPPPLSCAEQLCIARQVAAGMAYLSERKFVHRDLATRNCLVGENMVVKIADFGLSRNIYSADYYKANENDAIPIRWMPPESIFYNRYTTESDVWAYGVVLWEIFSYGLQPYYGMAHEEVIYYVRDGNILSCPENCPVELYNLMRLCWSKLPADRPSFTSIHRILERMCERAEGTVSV"}
{"data": "Sample 1", "target": "Ephrin type-A receptor 3 (EPHA3, Homo sapiens, UniProt P29320)", "observed": "enzyme activity", "action": "inhibitor", "tested at": "0.5 µM", "reference": "control", "Target sequence (P29320 1-983)": "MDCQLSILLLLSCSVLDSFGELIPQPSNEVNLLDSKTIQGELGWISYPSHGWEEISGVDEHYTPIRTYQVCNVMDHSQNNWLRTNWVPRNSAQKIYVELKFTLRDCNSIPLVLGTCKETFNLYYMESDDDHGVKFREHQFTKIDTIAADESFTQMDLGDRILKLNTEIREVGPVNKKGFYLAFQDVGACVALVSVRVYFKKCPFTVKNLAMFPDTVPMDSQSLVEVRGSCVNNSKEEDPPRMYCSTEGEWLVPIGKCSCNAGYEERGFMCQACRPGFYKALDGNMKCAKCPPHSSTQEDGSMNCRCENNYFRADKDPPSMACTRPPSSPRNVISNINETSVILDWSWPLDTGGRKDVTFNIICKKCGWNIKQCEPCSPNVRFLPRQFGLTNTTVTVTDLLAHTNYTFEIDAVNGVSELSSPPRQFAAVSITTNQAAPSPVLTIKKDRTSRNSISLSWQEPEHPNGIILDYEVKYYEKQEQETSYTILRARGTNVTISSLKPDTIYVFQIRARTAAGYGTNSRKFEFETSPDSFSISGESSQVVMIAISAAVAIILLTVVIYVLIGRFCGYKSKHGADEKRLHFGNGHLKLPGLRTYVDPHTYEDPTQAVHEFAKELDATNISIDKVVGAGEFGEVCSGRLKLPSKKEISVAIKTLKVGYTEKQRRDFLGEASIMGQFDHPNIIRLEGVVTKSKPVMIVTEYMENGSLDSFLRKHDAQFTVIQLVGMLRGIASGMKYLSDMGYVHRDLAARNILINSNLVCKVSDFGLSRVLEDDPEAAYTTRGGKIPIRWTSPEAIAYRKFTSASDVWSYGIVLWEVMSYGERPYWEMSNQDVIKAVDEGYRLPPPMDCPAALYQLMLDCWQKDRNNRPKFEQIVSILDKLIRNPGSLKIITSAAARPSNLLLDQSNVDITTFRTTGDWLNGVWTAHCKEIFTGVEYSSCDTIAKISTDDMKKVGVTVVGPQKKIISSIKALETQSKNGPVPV"}
{"Compound": "O=C(O)c1ccc2c3c1cccc3c(=O)n1c3ccccc3nc21", "remaining activity [%]": 104}
{"Compound": "CO[C@H]1C[C@@H]2CC[C@@H](C)[C@@](O)(O2)C(=O)C(=O)N2CCCC[C@H]2C(=O)O[C@H]([C@H](C)C[C@@H]2CC[C@@H](O)[C@H](OC)C2)CC(=O)[C@H](C)/C=C(\\C)[C@@H](O)[C@@H](OC)C(=O)[C@H](C)C[C@H](C)/C=C/C=C/C=C/1C", "remaining activity [%]": 109}
{"Compound": "Cn1sc(=O)n(Cc2ccccc2)c1=O", "remaining activity [%]": 107}
{"Compound": "O=C(Nc1cccc(Nc2cc(Nc3cccc(C(F)(F)F)c3)ncn2)c1)C1CC1", "remaining activity [%]": 98.4}
{"Compound": "Nc1ncnc2n[nH]c(Nc3ccc(F)cc3)c12", "remaining activity [%]": 107}
{"Compound": "O=C1NC(=O)C(c2cn(CCCn3ccnc3)c3ccccc23)=C1Nc1ccccc1", "remaining activity [%]": 102}
{"Compound": "CC(C)[C@H](CO)Nc1nc(Nc2cc(N)cc(Cl)c2)c2ncn(C(C)C)c2n1", "remaining activity [%]": 86.6}
{"Compound": "Cn1c2ccccc2c2c3c(c4c5ccccc5n(CCC#N)c4c21)CNC3=O", "remaining activity [%]": 97.9}
{"Compound": "O=C1NC(=O)C(c2cn(CCCO)c3ncccc23)=C1c1cnccn1", "remaining activity [%]": 102}
{"Compound": "Cc1cccc(-c2[nH]c(C(C)(C)C)nc2-c2ccc3c(c2)OCO3)n1", "remaining activity [%]": 101}
{"Compound": "CN(C)c1ccc(C=C2C(=O)Nc3ccccc32)cc1", "remaining activity [%]": 102}
{"Compound": "Cc1ccc(Nc2nccc(N(C)c3ccc4c(C)n(C)nc4c3)n2)cc1S(N)(=O)=O", "remaining activity [%]": 94.1}
{"Compound": "O=c1c2ccccc2[nH]c(=S)n1CCN1CCC(=C(c2ccc(F)cc2)c2ccc(F)cc2)CC1", "remaining activity [%]": 101}
{"Compound": "COc1cc2nccc(Oc3ccc(NC(=S)NC(=O)c4ccccc4C)cc3)c2cc1OC", "remaining activity [%]": 105}
{"data": "Sample 2", "species": "mouse", "medium": "microsomes or S9", "tested at": "2 µM", "time": "0.5 h"}
{"SMILES": "Cc1cc2ncccc2c(Br)c1OS(=O)(=O)C(F)(F)F", "remaining compound": "> 99%"}
{"SMILES": "COc1cc2c(Nc3ccc(Br)cc3F)ncnc2cc1O", "remaining compound": "16.5%"}
{"SMILES": "COc1ccc2c(C)c(C(=O)OC(C)C)n(C)c2c1", "remaining compound": "46.8%"}
{"SMILES": "COc1cc(=O)[nH]cc1C(=O)N1CCCN(C)c2ccccc21", "remaining compound": "46.8%"}
{"SMILES": "CNC(=O)Nc1cc(S(=O)(=O)C(C)C(=O)O)c(Cl)cc1F (stereo not drawn)", "remaining compound": "89.8%"}
{"SMILES": "Cc1c(C#N)c2ccccc2n1Cc1nc(Cc2ccccc2)n[nH]1", "remaining compound": "4.96%"}
{"SMILES": "CC(C)(C)c1ccc(-c2n[nH]c(-c3ccccc3N)nc2=O)cc1", "remaining compound": "9.9%"}
{"SMILES": "Cc1cc2oc(C(=O)N3CCN(C)CC3)c(C)c2cc1C", "remaining compound": "0.0104%"}
{"data": "Sample 3", "Compound": "CN([C@@H]1CCc2c(CC(=O)O)c3ccccc3n2C1)S(=O)(=O)c1ccc(F)cc1", "observed": "cell-free assay", "technique": "competition with immobilised ligand", "tested at": "1 µM"}
{"target": "ALK tyrosine kinase receptor (ALK, Homo sapiens, UniProt Q9UM73, L1196M)", "remaining binding": "74%"}
{"target": "eIF-2-alpha kinase GCN2, C-terminal kinase domain (EIF2AK4, Homo sapiens, UniProt Q9P2K8, S808G)", "remaining binding": "78%"}
{"target": "Ribosomal protein S6 kinase alpha-6, N-terminal kinase domain (RPS6KA6, Homo sapiens, UniProt Q9UK32)", "remaining binding": "100%"}
{"target": "Muscle, skeletal receptor tyrosine-protein kinase (MUSK, Homo sapiens, UniProt O15146)", "remaining binding": "97%"}
{"target": "Phosphatidylinositol 5-phosphate 4-kinase type-2 gamma (PIP4K2C, Homo sapiens, UniProt Q8TBX8)", "remaining binding": "100%"}
{"target": "Tyrosine-protein kinase ZAP-70 (ZAP70, Homo sapiens, UniProt P43403)", "remaining binding": "100%"}
{"target": "Mitogen-activated protein kinase kinase kinase 20 (MAP3K20, Homo sapiens, UniProt Q9NYL2)", "remaining binding": "99%"}
{"target": "Leucine-rich repeat serine/threonine-protein kinase 2 (LRRK2, Homo sapiens, UniProt Q5S007)", "remaining binding": "100%"}
{"target": "Myosin light chain kinase (MYLK3, Homo sapiens, UniProt Q32MK0)", "remaining binding": "95%"}
{"target": "Mast/stem cell growth factor receptor Kit, autoinhibited (KIT, Homo sapiens, UniProt P10721)", "remaining binding": "96%"}
{"target": "Phosphatidylinositol 3-kinase C2 domain-containing subunit gamma (PIK3C2G, Homo sapiens, UniProt O75747)", "remaining binding": "95%"}
{"target": "Eukaryotic translation initiation factor 2-alpha kinase 1 (EIF2AK1, Homo sapiens, UniProt Q9BQI3)", "remaining binding": "98%"}
{"data": "Sample 4", "SMILES": "O=C1NC(=O)C(c2cn(-c3ccccc3)nc2-c2ccc(F)cc2)N1 (stereo not drawn)", "action": "inhibitor", "tested at": "5 µM"}
{"target": "Vascular endothelial growth factor receptor 3 (FLT4, Homo sapiens, UniProt P35916, P1114L)", "test": "cell-based translocation", "test system": "human cells", "setting": "hereditary lymphedema type 1A variant", "scale": "reference: vehicle", "log2 fold change": -0.189}
{"target": "kinase–CDC37 interaction", "test": "kinase–CDC37 binding", "test system": "human cells", "setting": "oncogenic CCDC6-RET fusion", "scale": "reference: vehicle", "log2 fold change": -0.274}
{"target": "Serine/threonine-protein kinase 38-like (STK38L, Homo sapiens, UniProt Q9Y2H1)", "test": "kinase-CDC37 interaction", "test system": "human cells", "scale": "reference: vehicle", "log2 fold change": 0.252}
{"target": "Tyrosine-protein kinase Blk (BLK, Homo sapiens, UniProt P51451)", "test": "cell-based kinome profiling", "test system": "human cells", "scale": "reference: vehicle control", "log2 fold change": -0.433}
{"target": "Non-receptor tyrosine-protein kinase TYK2, with CDC37 (TYK2, Homo sapiens, UniProt P29597)", "test": "kinase activity", "setting": "cell-based kinome screen", "scale": "reference: vehicle", "log2 fold change": -0.327}
{"target": "Dual specificity protein kinase CLK2 (CLK2, Homo sapiens, UniProt P49760)", "test": "kinase-CDC37 interaction", "test system": "human cells", "scale": "reference: vehicle", "log2 fold change": -0.062}
{"target": "cGMP-dependent protein kinase 2 (PRKG2, Homo sapiens, UniProt Q13237)", "test": "kinase activity", "setting": "cell-based kinome screen", "scale": "reference: vehicle", "log2 fold change": 0.006}
{"target": "Proto-oncogene serine/threonine-protein kinase mos (MOS, Homo sapiens, UniProt P00540)", "test": "kinase-CDC37 interaction", "test system": "human cells", "scale": "reference: vehicle", "log2 fold change": -0.3}
{"target": "Myosin light chain kinase 2, skeletal/cardiac muscle (MYLK2, Homo sapiens, UniProt Q9H1R3)", "test": "cell-based kinome screen", "test system": "human cells", "scale": "reference: untreated control", "log2 fold change": -0.43}
{"target": "cAMP-dependent protein kinase catalytic subunit gamma (PRKACG, Homo sapiens, UniProt P22612)", "test": "kinase–CDC37 interaction", "setting": "kinome plate 3@C04", "scale": "reference: vehicle", "log2 fold change": -0.42}
{"target": "Tyrosine-protein kinase Fes/Fps (FES, Homo sapiens, UniProt P07332)", "test": "cell-based kinome screen", "test system": "human cells", "scale": "reference: vehicle", "log2 fold change": 0.095}
